Measurements from different studies.
Compare with care: the assays were run in different laboratories.
Organism: Staphylococcus aureus

SMILES | test | system | setting | how to read | MIC
CCCCCCCCCCCCCC(=O)N[C@H](CCN)C(=O)N[C@@H]1C(=O)N[C@@H](CCN)C(=O)N[C@@H](CC(C)C)C(=O)N[C@@H](CCN)C(=O)N[C@H](Cc2ccccc2)C(=O)N[C@@H](CC(C)C)C(=O)N[C@@H](CCN)C(=O)N[C@H](Cc2ccc(O)cc2)C(=O)N[C@@H](C(C)C)C(=O)N[C@@H](CC(=O)O)C(=O)O[C@@H]1C | broth microdilution | BNCC 186335 |  |  | 2 µg/mL
C=CCCNS(=O)(=O)c1ccc(-n2nnc(/C(C)=N/NC(=N)N)c2C)cc1 | microbial growth, broth dilution | MRSA USA300 | drug-resistant strain |  | > 64 µg/mL
CC1=CC2(C)C(=C(C)C3C4CC(C)CC(C)C4C4Oc5ccc(cc5)CC5(O)NC(=O)C(=C(O)C2C43)C5Nc2ncnc3c2ncn3C2OC(CO)C(O)C2O)C1C (stereo not shown) | microbial growth, broth dilution | ATCC700699 MRSA | drug-resistant strain |  | 6.3 µM
CN[C@@H]1[C@H](O)[C@H](NC)[C@H]2O[C@]3(O)[C@H](O[C@@H]2[C@H]1O)O[C@H](C)C[C@@]3(O)CNCc1ccccc1 |  | MRSA NRS70 |  |  | 50 to 100 µg/mL
CCCO[C@H]1[C@H](O)[C@@H](N)[C@@H](O[C@H]2[C@H](O[C@@H]3O[C@H](CO)[C@@H](O[C@H]4O[C@@H](CN)[C@@H](O)[C@H](O)[C@H]4N)[C@H]3O)[C@@H](O)[C@H](N)C[C@@H]2N)O[C@@H]1CO | broth microdilution | MRSA isolate AG 044 |  |  | 8 µg/mL
CC(C)CCCCCCCCCCCCc1cc(O)cc(O)c1 | microbial growth, broth dilution | USA300 | drug-resistant strain |  | > 64 µg/mL
CC(C)C[C@H](NC(=O)CN)C(=O)N[C@@H](CC(C)C)C(=O)N[C@@H](CCCCN)C(=O)N[C@@H](CC(C)C)C(=O)N[C@@H](CC(C)C)C(=O)N[C@@H](CCCCN)C(=O)N[C@@H](CCCCN)C(=O)N[C@@H](CC(C)C)C(=O)N[C@@H](CC(C)C)C(=O)N[C@@H](CCCCN)C(=O)N[C@@H](CC(C)C)C(=O)N[C@@H](CC(C)C)C(=O)N[C@@H](CCCCN)C(N)=O |  | SH1000 GFP-expressing, nutrient broth | 20 h, 37 °C |  | 33 µM
O=C(c1ccccc1O)c1[nH]c(Cl)c(Cl)c1-n1c(C(=O)c2ccccc2O)cc(Cl)c1Cl | microbial growth, broth dilution | NCTC8325 | 20 h |  | 0.25 µg/mL
N=C(N)NCCC[C@@H]1NC(=O)[C@H](CCCNC(=N)N)NC(=O)[C@H](CCCNC(=N)N)NC(=O)[C@H](CCCNC(=N)N)NC(=O)[C@H](Cc2c[nH]c3ccccc23)NC(=O)[C@H](CCCNC(=N)N)NC(=O)[C@H](CCCNC(=N)N)NC(=O)[C@@H](N)CCCCn2cc(nn2)C[C@@H](C(N)=O)NC1=O |  |  | 24 h, 37 °C, in 0.01% acetic acid |  | 62.5 µg/mL
NCCCC[C@@H]1NC(=O)[C@@H](CCCCN)NC(=O)[C@H](CCCCN)NC(=O)[C@@H](CCCCN)NC(=O)[C@H](Cc2c[nH]c3ccccc23)NC(=O)[C@@H](Cc2c[nH]c3ccccc23)NC(=O)[C@H](Cc2c[nH]c3ccccc23)NC(=O)[C@@H](Cc2c[nH]c3ccccc23)NC(=O)[C@@H](N)CSCc2ccc(cc2)CSC[C@@H](C(N)=O)NC(=O)[C@@H](CCCCN)NC1=O |  | COL MRSA |  |  | 32 to 64 µg/mL
CCCCc1ccc(-c2nc(C)c(C(C)=NNC(=N)N)s2)cc1 |  | USA500 MRSA |  |  | 1.3 µg/mL
CCC(O)CC#Cc1ccc(-n2nnc(/C(C)=N\NC(=N)N)c2C)cc1 (stereo not shown) | broth microdilution | MRSA USA300 NRS384 |  |  | > 64 µg/mL
O=C(NCCNCCO)c1cn(Cc2ccccc2)c2cc(OCc3ccc(C(F)(F)F)cc3)c(Cl)cc2c1=O |  | ATCC 43300 MRSA |  | ≥80% growth inhibition | < 0.25 µg/mL
CC(C)[C@H](NC(=O)[C@H](CCCCN)NC(=O)[C@H](CCCNC(=N)N)NC(=O)CNC(=O)[C@H](C)NC(=O)[C@H](CC(N)=O)NC(=O)[C@H](CCCNC(=N)N)NC(=O)[C@@H](NC(=O)[C@H](CCCCN)NC(=O)[C@H](CC(=O)O)NC(=O)[C@@H](NC(=O)[C@@H](NC(=O)[C@H](CCCNC(=N)N)NC(=O)[C@H](CCCNC(=N)N)NC(=O)[C@H](Cc1c[nH]c2ccccc12)NC(=O)[C@H](Cc1c[nH]c2ccccc12)NC(=O)CN)[C@@H](C)O)C(C)C)C(C)C)C(=O)O | bacterial growth | ATCC 25923 | 18 h |  | > 256 µg/mL
O=C1c2ccccc2NC(c2ccc(O)c(O)c2)N1/N=C/c1ccc(O)c(O)c1 (stereo not shown) | microbial growth, broth dilution |  | drug-resistant strain, clinical isolate |  | 164 µM
CCCCCCCCCCN1C(=O)/C(=N\NC(N)=S)c2cc(C)ccc21 | broth microdilution | BAA41 MRSA | 18 h, 37 °C |  | > 192 µg/mL
CC[C@H](C)[C@H](NC(=O)[C@H](CCCCNC(=N)N)NC(=O)[C@H](CC(N)=O)NC(=O)[C@H](CC(C)C)NC(=O)[C@H](Cc1ccccc1)NC(=O)[C@H](CCCCNC(=N)N)NC(=O)[C@H](CCCCNC(=N)N)NC(=O)[C@H](CC(C)C)NC(=O)[C@H](CC(C)C)NC(=O)[C@H](CCCCNC(=N)N)NC(=O)[C@H](CCCCNC(=N)N)NC(=O)[C@H](CC(C)C)NC(=O)CNC(C)=O)C(=O)N[C@@H](CCCCNC(=N)N)C(=O)N[C@@H](CCCCNC(=N)N)C(N)=O | broth microdilution | multidrug-resistant |  |  | 3.12 µM
CN1C(=O)[C@@H]2NC(=O)[C@@H]3NC(=O)[C@@H](c4ccc(O)cc4)NC(=O)[C@H](NC(=O)C(NCc4ccccn4)c4ccc(O)cc4)Cc4c[nH]c5cc(ccc45)-c4cc3cc(c4O)Oc3ccc(cc3)C[C@H]1C(=O)N[C@@H](C(=O)O)c1ccc(O)c(c1)Oc1ccc2cc1 (stereo partly shown) |  | ATCC 33591 MRSA, Mueller-Hinton broth |  |  | 64 µg/mL
CC(C)C[C@@H]1NC(=O)[C@H](C)NC(=O)[C@H](NC(=O)[C@H](CO)NC(=O)[C@@H](CCCCN)NC(=O)[C@@H](CC(C)C)NC(=O)[C@@H](N)Cc2ccccc2)[C@H](C(N)=O)OC(=O)[C@H](C)NC1=O |  | MSSA ATCC 29213 | TFA salt |  | > 32 µg/mL
c1ccc(CN2CCOCCOCCN(CCCCCCCCCCCCN3CCOCCOCCN(CCCCCCCCCCCCN4CCOCCOCCN(Cc5ccccc5)CCOCCOCC4)CCOCCOCC3)CCOCCOCC2)cc1 | checkerboard, item: norfloxacin | 1199B | 500 nM, added: norfloxacin |  | 0.5 µM
COc1c(CC=C(C)C)c(O)cc2c1-c1oc3c(CC=C(C)C)c(O)ccc3c1CO2 |  |  |  |  | inactive
COc1ccc2cc3[n+](cc2c1OCCCOc1ccc(Cl)cc1)CCc1cc2c(cc1-3)OCO2 | microbial growth | ATCC43300 | drug-resistant strain, clinical isolate |  | 4 µg/mL
N=C(N)NCCC[C@@H]1NC(=O)[C@H](CCCNC(=N)N)NC(=O)[C@H](CCCNC(=N)N)NC(=O)[C@H](Cc2c[nH]c3ccccc23)NC(=O)[C@H](Cc2c[nH]c3ccccc23)NC(=O)[C@H](Cc2c[nH]c3ccccc23)NC(=O)[C@H](Cc2c[nH]c3ccccc23)NC(=O)[C@H](CCCNC(=N)N)NC1=O | broth microdilution | MRSA ATCC 43300 | 37 °C |  | 2.67 to 9.75 µg/mL
CC(C)CCCCCCCCC/C=C/C(=O)N[C@@H](CC(=O)O)C(=O)N[C@H]1CNC(=O)[C@@H]2CCCN2C(=O)[C@H](Cc2ccccc2)NC(=O)[C@@H]([C@@H](C)O)NC(=O)CNC(=O)[C@H](CC(=O)O)NC(=O)CNC(=O)[C@H](CC(=O)O)NC(=O)CNC(=O)[C@H]2CCCCN2C1=O |  | MRSA USA300 | added: Ca2+ 10 mM |  | 8 µg/mL
CC[C@H](C)[C@H](N)C1=N[C@H](C(=O)N[C@@H](CC(C)C)C(=O)N[C@H](CCC(=O)O)C(=O)N[C@H](C(=O)N[C@H]2CCCCNC(=O)[C@H](CC(N)=O)NC(=O)[C@@H](CC(=O)O)NC(=O)[C@H](Cc3c[nH]cn3)NC(=O)[C@@H](Cc3ccccc3)NC(=O)[C@H](Cc3ccccc3)NC(=O)[C@@H](CCCN)NC2=O)[C@@H](C)CC)CS1 | broth microdilution | ATCC 29213, LB medium | 18 h, 37 °C, added: ZnSO4 0.3 mM |  | 4 µg/mL
COc1ccc2ccc3c(c2c1)C=[N+]1C2CCCCC2[N+]2=Cc4c(C)cccc4[O][Au-]21[O]3.F[P-](F)(F)(F)(F)F (stereo not shown) | bacterial growth, broth microdilution | vancomycin-intermediate | 24 h |  | 20 µM
CN1CCNC1=S.CN1CCNC1=S.O=[N+]([O-])[O-].[Ag+].c1ccc(P(c2ccccc2)c2ccccc2)cc1 | agar dilution | MTCC 740 | 24 h, 37 °C |  | 10 µg/mL
CN(C)CCCNCCCNC(=O)[C@@H]1NC(=O)[C@@H]2Cc3ccc(cc3)Oc3cc4cc(c3O)-c3ccc5c(c[nH]c5c3)C[C@@H](NC(=O)C(N)c3ccc(O)cc3)C(=O)N[C@H](c3ccc(O)cc3)C(=O)N[C@H]4C(=O)N[C@@H](C(=O)N2C)c2ccc(cc2)Oc2cc1ccc2O (stereo partly shown) |  | ATCC 33591 MRSA, Mueller-Hinton broth |  |  | > 128 µg/mL

A few entries again:
SMILES | test | system | setting | how to read | MIC
CN[C@@H]1[C@H](O)[C@H](NC)[C@H]2O[C@]3(O)[C@H](O[C@@H]2[C@H]1O)O[C@H](C)C[C@@]3(O)CNCc1ccccc1 |  | MRSA NRS70 |  |  | 50 to 100 µg/mL
CCCO[C@H]1[C@H](O)[C@@H](N)[C@@H](O[C@H]2[C@H](O[C@@H]3O[C@H](CO)[C@@H](O[C@H]4O[C@@H](CN)[C@@H](O)[C@H](O)[C@H]4N)[C@H]3O)[C@@H](O)[C@H](N)C[C@@H]2N)O[C@@H]1CO | broth microdilution | MRSA isolate AG 044 |  |  | 8 µg/mL
CC(C)CCCCCCCCCCCCc1cc(O)cc(O)c1 | microbial growth, broth dilution | USA300 | drug-resistant strain |  | > 64 µg/mL
